# Assay results from different studies.
# Parts stem from different laboratories: compare values within a part only.

# Series 1 — technique: aptamer microarray, sandwich; form: DNA with 2'F-ANA; medium: in vitro; concentration: 200 nM; with: Cy3 exosite-II aptamer, 400 nM; direction: higher = stronger binding; sequence: GGTTGGTGTGGTTGG
# Target: Prothrombin, mature alpha-thrombin (F2, Homo sapiens, UniProt P00734)
# Notes: whole 15-mer aptamer, many near background
Modification,mean fluorescence intensity [a.u.]
2'F-ANA at 1 2 3 5 9 10 11 13 14,46.8
2'F-ANA at 1 3 4 5 7 13 14 15,45.9
2'F-ANA at 1 2 4 5 8 9 10 11 12 13 14,95.4
2'F-ANA at 2 8 10 13 15,110
2'F-ANA at 3 4 7 8 9 11 12,921
2'F-ANA at 1 4 5 8 9 10 11 12 14 15,60.2
2'F-ANA at 2 4 5 8 9 10 15,73.3
2'F-ANA at 2 4 5 10 11 12 14 15,52.4
2'F-ANA at 3 4 5 6 7 9 10 12 14 15,48.8
2'F-ANA at 5 6 8 10 11 12 13,53
2'F-ANA at 2 3 5 6 7 13,63.6
2'F-ANA at 1 2 6 7 10 11 13 14,53.1
2'F-ANA at 1 2 3 6 8 9 13 14,78.2
2'F-ANA at 2 3 4 7 9 10 12 15,312
2'F-ANA at 1 3 6 7 10 11,76.5
2'F-ANA at 2 3 5 6 7 12 14,51.8
2'F-ANA at 2 4 5 8 9 10 13 14 15,48.5
2'F-ANA at 1 3 4 5 7 8 9 11 12 13 14,61.2
2'F-ANA at 5 6 9 10 11 12 14,81.6
2'F-ANA at 2 3 4 5 7 8 12 15,249
2'F-ANA at 1 2 6 13,110
2'F-ANA at 2 6 7 8 10 11 14 15,80.5

# Series 2 — technique: RNA Bind-n-Seq; form: RNA; medium: in vitro; concentration: 365 nM; reference: no-protein control; direction: higher = stronger binding
# Target: RNA binding protein fox-1 homolog 2, RRM domain, GST-SBP tag (RBFOX2, Homo sapiens, UniProt O43251-10, residues 100-194)
# Notes: natural RNA segment, single round, ends assumed
# Constant ends, left off below: GGGAGUUCUACAGUCCGACGAUC … UGGAAUUCUCGGGUGCCAA
# Target sequence (chain): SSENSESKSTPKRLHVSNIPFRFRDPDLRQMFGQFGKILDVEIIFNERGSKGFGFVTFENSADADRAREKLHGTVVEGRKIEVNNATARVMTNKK
Sequence,RBNS enrichment (R)
AUUUCAUGGAGUCGUAUCAACGCUAUGAACGCAAGGCUGUGAUAUGGAACCAGAAGGCUGUCUGAACUUUUGAAACCUUGUGUGGGAUUGAUGGUGGUGCCGAGGCAUGA,21.6
AUCACCCUAGGUGUGCACCAGACUCCUAUUAGCCCCUCCUUCCAGGAGCUAGAACCAGGGAGGUCCUGAGUGAGGAAGGCAUGACCUCUGGGCUCUCUAGGUGGCCCUGG,1.42
GCAAACACAGUUGAUUUAGGAAGUCACACAAUGACACUGAAAUCCUACAGACCAAAAUCCACUUGUCAGCAGGAGCAGCAGCCCAGGCCCAGCACCAGCGGUCUUCCGGC,0.228
AAAUCACAGCUUCUAGCUAGGCCAAAAUACUUACUCUACUGAUCUUCAAAAUAAAUGUAUUUCAUAAUUAUUGUGUGUUAAUUUUGACCUCAGAAAUGGAGAUAUGAUGC,0.653
CUUGUUUACAGAAGAGAAACAAACAAGCCCCACUCAGCUCAGUCACAGGAGAGAACACAGAAAGUCUUAGGAUCAUGAACUCUGAAAAAAAGAGAAACCUUAUCUUUGCU,0.637
GAGGACCUUUUACUAAAAGGUAGAAGACUUCAUGGCUUACUUGUUCCAUAACUCCAAGUGAGUCUGUAAUGUUUGUGAAGCUUGACUGUAACCAUGUUUUUUCUGUUUAA,0.667
UUUCCAUUUCAGUCUGGGGACCCCAUUUCUCCCUCCUUUCCAACUUCCUUCCUUUCUUGUCCUGUUUCCCUUCCUGCCCUUGCAGUCCUGAGGUCCUGCAGCCCCGGCCC,1.12
ACAAGUUAAAAAUAUAAAUUAAACAUUGGCCUUCUAGUGUGGUGUUUAUGAGCAUCUGGAAGAGCAAAUUCUAACUCCUGUCCAAGUGACAGACUGGAAUAUUUCUUAGG,0.678
AAAAAAAGCAUCUAGGAUAAAUAUAAAAAUUUCAUCAUGUCUGAGUGGUUGCUCUGCUAAAAUAAGGGGCAUUUAAAAGCCAAAUGUAACCAUGGGAUUCAGAAGAGCAC,0.776
UAUCAAAUGAAAUAUUACAGCACCUAGAAAAUAAUUUAGUUUUGCUUGCUUCCAUUGAUCAGUCUUUUACUUGAGGCAUUAAAUAUCUAAUUAAAUCGUGAAAUGGCAGU,0.342
GUUAAGACACUACUUGGUGGACCUCAACCCCAGAACCACCAAAUUUGGCAUUUCUAAGUUCCUAGGUGAUGUUCUACUCACAGUCAGUCCAGAGGAUUACCUUAAGAGUC,0.354
CCUCGGACCCGUUCCCAGGAGGUGCAGGGGCCCAGCAAUAAACGGCGAAAGGGGCCUUGGCUCUUGCCCUGUGGCAGUGACCUUGGGGUCCGUACUAUGCCCAGGUGUCA,0.28

# Series 3 — technique: protein binding microarray; form: double-stranded DNA, one strand shown; medium: in vitro; concentration: not given; reference: not given; direction: higher = stronger binding
# Target: Histone acetyltransferase KAT6A, winged helix 2, GST fusion (KAT6A, Homo sapiens, UniProt Q92794, residues 85-181)
# Notes: 8-mer, flanks averaged, mean of 2 arrays, mostly near background
# Construct (chain): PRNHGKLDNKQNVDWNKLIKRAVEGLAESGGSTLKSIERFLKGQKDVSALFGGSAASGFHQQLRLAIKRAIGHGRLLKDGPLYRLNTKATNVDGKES
Sequence,E-score
TCTCGGAA,0.0728
CCTCCGAC,0.0809
GTTAAGGA,0.0673
ATCGTAAA,-0.0254
CGCCCGTA,-0.0421
CCGTCTCG,0.193
CGGGATTC,0.0784
CAAGTAAA,-0.0906
CCTCCGTA,-0.145
AATTCATA,0.129
ACTACAGC,-0.0909
GCAAATCA,0.0221
AGTATTGG,-0.0613
ACCGGCAC,0.164
AGTTTGGA,0.129
ACGCATAA,-0.0627
AACAGGCC,-0.0505

# Series 4 — technique: universal PBM; form: double-stranded DNA, one strand shown; medium: in vitro; concentration: 600 nM; direction: higher = stronger binding
# Target: Sal-like protein 4, full length isoform A (SALL4, Homo sapiens, UniProt Q9UJQ4, residues 1-1053)
# Sequence of UniProt Q9UJQ4 (whole entry, looked up): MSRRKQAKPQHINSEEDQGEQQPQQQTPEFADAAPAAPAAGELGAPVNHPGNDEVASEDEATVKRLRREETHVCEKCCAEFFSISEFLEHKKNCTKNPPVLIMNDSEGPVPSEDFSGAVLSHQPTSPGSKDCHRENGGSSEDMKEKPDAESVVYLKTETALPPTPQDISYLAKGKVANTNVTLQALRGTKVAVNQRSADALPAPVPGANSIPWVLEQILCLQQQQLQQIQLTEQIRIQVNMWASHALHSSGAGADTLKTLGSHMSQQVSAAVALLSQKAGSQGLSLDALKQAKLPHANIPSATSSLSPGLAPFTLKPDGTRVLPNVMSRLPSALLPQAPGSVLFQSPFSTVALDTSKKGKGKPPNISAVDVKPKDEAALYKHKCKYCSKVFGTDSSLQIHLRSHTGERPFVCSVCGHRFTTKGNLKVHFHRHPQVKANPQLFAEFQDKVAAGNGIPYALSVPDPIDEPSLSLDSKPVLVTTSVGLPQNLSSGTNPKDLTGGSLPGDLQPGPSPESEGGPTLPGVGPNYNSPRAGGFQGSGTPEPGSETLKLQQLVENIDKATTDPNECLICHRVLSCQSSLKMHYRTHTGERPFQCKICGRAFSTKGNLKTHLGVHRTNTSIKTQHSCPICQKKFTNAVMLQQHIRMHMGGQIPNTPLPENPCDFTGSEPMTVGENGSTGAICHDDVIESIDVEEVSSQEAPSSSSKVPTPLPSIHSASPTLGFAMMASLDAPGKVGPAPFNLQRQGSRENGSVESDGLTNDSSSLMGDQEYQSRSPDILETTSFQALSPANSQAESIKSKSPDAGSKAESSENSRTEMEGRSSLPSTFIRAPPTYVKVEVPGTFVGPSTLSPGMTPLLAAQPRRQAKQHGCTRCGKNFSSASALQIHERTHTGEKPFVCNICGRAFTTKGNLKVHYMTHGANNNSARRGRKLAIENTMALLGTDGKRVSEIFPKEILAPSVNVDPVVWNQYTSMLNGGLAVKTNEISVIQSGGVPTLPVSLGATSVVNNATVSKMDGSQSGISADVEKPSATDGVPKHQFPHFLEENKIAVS
# Notes: 8-mer, flanks averaged, mean of replicates
Sequence,E-score
ACCAGCAT,-0.0736
ATGAGTGG,-0.0694
ACAACGGA,-0.0683
AACGATAA,0.194
ATGCAGAC,-0.0502
AGAATTCA,0.153
ACCCCTGC,-0.229
GGTTAAAC,0.0967
AACCCCAC,-0.223
GAGTACGC,-0.239
GGGCGATA,-0.147
ACGGTCCG,-0.305
AGGTAGTA,0.126
ATGCCCCA,-0.227
ATATACCG,0.0886
CCGAGGTA,-0.22
GGGACCGA,-0.344
AGCTCCGG,-0.241
CTATGGAC,-0.0185
ATAAGGCG,0.0727
AATCCATG,0.124
AGGGATAC,-0.0584
CGGAATAC,0.101
AATCACAA,0.147
ACTGTGCC,-0.0934

# Series 5 — technique: protein-binding microarray; form: double-stranded DNA, one strand shown; medium: in vitro; concentration: 250 nM; notes: 60-bp whole probe; with: salmon DNA 0.4 mg/ml; reference: random background probes; direction: higher = stronger binding; constant ends, left off below: GCCTAGCAC … GTCTTGATTCGCTTGACGCTGCTG
# Target: Interferon regulatory factor 5, full length, phosphomimetic (IRF5, Homo sapiens, UniProt Q13568-2, residues 1-514, K96S/S451D/S453D/S456D/S462D)
Sequence,log fluorescence
GACGGGCTGGACACTGGGGACGTGCTA,-0.686 z-score
TGTGGCTTAGTTTGTCAAAAAGTGCTA,-0.277 z-score
GACGGCCTGGACTTTCGGGACGTGCTA,3.29 z-score
GGTCTTCTGGACTGTTTGGTCGTGCTA,-0.436 z-score
TTAGGACTGCTTCTCCTTTCGTGCTAG,0.516 z-score
TTAGGTTACGACACTGGGTTAGTGCTA,0.157 z-score
TTAGTTTTCAGTATCGATTAGTGCTAG,8.88 z-score
TCCTTTATGTCCTGTCTACATGTGCTA,0.471 z-score
GACGGTATCGACACTGGGCACGTGCTA,1.52 z-score
GACCAGGGGCCACAGCCTCAGTGCTAG,-0.786 z-score
TTAGATATCAGTATCGTTTAGTGCTAG,4.73 z-score
GACGAACTGAGTTTCGATACGTGCTAG,9.16 z-score
TCATTTTTCTTTTATTAACTGTGCTAG,1.76 z-score
TTAGGACTGCGTCTCGGTTAGTGCTAG,-0.273 z-score
TTAGATCTCAGTATCGATAAGTGCTAG,6 z-score
GACGGTCTCGGACTGGGTACGTGCTAG,-0.507 z-score
GACGGTACCGGTATCGGGACGTGCTAG,0.983 z-score
GACGAACTCGGGTTTCGAGACGTGCTA,1.65 z-score
TTAGGCATCGGTTTCGGTTAGTGCTAG,8.54 z-score
GACGGTTTCGGGTATCGGGAGGTGCTA,8.16 z-score
TTAGATATCAGACTGGATTCGTGCTAG,0.212 z-score
TATCCTTCCCCTCTAGGTTCGTGCTAG,0.53 z-score

# For quick reference, copied from above (series 4):
Sequence,E-score
ACCCCTGC,-0.229
ATGCAGAC,-0.0502
AACCCCAC,-0.223
AACGATAA,0.194
ACGGTCCG,-0.305
ACTGTGCC,-0.0934
GGTTAAAC,0.0967
GGGCGATA,-0.147
CTATGGAC,-0.0185
ATGCCCCA,-0.227
ATATACCG,0.0886
ATAAGGCG,0.0727
CCGAGGTA,-0.22
